Experimental data pooled from the literature.
Every numbered part comes from another study and shows a few of its results, in no order.
UniProt Q9UM73, sequence (whole entry, unmodified, looked up): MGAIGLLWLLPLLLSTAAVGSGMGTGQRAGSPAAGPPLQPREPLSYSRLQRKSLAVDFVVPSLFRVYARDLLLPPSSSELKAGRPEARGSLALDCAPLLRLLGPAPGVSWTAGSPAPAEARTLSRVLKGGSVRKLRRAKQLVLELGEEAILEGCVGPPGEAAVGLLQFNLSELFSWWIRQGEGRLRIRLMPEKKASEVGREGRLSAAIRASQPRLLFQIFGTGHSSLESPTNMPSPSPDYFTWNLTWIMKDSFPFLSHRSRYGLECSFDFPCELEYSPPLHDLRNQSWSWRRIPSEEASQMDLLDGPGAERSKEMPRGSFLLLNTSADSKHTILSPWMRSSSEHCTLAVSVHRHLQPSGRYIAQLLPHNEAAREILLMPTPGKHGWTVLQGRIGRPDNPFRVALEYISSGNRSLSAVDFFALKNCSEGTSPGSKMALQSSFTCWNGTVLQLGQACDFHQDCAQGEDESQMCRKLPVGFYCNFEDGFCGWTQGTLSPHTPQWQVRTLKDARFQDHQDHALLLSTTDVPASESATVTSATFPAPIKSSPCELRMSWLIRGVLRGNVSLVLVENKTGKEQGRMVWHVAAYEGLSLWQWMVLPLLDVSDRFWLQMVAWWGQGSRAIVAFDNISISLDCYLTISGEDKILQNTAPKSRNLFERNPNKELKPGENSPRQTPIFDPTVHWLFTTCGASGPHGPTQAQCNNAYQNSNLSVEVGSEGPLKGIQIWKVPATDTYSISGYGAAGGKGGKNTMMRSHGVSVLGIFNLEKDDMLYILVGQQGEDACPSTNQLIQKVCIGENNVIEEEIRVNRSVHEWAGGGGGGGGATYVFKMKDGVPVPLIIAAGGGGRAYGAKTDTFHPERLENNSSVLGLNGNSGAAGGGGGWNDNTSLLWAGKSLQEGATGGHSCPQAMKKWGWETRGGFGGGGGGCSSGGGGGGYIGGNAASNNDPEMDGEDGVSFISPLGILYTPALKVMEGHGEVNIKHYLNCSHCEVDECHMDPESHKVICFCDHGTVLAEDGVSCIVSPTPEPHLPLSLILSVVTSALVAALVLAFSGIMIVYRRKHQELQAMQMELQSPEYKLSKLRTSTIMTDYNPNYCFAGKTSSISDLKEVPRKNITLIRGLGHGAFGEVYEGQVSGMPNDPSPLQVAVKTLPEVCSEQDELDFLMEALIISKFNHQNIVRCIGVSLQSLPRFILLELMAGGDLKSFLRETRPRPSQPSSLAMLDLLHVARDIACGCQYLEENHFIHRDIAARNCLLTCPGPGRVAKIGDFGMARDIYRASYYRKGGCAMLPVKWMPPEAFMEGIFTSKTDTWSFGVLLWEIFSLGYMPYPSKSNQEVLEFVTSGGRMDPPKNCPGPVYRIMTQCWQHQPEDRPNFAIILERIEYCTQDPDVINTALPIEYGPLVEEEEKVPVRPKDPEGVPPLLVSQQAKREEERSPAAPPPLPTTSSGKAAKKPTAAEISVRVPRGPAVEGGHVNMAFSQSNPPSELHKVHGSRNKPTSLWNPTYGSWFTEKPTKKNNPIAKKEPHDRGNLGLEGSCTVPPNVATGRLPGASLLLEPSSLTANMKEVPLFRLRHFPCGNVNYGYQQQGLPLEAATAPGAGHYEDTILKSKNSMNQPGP
UniProt Q14330, sequence (whole entry, looked up): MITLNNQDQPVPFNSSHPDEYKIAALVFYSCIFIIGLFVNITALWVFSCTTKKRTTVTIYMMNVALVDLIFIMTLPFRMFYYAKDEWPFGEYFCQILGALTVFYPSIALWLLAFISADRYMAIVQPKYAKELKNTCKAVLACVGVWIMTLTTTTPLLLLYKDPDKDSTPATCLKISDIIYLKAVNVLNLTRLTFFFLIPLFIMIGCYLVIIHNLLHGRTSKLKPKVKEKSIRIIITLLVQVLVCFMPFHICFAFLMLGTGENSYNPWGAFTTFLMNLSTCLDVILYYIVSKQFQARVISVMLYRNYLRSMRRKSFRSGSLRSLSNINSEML
UniProt Q16659, sequence (whole entry, looked up): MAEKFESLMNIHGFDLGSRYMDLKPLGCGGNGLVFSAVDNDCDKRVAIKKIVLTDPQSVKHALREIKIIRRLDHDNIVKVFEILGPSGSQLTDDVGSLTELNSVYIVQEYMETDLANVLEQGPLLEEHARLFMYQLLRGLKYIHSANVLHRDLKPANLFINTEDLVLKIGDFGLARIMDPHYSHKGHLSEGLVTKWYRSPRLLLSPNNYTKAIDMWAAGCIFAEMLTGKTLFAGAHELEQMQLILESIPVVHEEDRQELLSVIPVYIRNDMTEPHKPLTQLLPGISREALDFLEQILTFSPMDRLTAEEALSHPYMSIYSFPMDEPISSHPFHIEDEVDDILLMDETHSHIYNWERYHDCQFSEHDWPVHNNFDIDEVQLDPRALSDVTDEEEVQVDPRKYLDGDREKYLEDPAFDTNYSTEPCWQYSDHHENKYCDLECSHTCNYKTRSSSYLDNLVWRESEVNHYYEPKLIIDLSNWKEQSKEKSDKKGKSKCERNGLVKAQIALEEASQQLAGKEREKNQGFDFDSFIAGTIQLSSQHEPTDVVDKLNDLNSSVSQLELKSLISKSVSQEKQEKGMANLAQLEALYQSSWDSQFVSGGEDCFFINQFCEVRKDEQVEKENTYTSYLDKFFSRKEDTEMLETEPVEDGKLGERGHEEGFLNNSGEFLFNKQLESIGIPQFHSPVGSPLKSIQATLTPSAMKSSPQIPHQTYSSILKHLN
UniProt Q96PF2, sequence (whole entry, looked up): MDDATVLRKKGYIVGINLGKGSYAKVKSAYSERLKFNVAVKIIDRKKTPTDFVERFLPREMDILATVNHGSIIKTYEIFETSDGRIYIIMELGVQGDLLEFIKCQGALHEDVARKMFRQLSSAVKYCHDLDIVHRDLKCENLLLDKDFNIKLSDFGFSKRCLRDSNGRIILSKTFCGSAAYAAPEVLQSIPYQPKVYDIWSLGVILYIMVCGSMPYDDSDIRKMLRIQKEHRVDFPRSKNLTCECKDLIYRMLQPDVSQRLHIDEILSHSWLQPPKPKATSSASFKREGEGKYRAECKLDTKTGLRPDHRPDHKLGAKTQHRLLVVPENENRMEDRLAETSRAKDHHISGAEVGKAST
UniProt O43193, sequence (whole entry, looked up): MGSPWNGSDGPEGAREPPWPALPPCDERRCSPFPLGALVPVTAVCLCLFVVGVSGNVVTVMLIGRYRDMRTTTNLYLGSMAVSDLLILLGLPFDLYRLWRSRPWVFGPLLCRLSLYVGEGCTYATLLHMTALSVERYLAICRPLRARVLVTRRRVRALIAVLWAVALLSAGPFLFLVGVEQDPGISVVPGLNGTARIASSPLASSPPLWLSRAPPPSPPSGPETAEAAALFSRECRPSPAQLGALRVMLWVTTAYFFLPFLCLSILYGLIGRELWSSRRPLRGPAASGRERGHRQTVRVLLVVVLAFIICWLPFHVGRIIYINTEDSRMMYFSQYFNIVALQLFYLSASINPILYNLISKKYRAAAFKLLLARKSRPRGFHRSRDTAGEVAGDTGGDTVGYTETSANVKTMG
UniProt O43781, sequence (whole entry, looked up): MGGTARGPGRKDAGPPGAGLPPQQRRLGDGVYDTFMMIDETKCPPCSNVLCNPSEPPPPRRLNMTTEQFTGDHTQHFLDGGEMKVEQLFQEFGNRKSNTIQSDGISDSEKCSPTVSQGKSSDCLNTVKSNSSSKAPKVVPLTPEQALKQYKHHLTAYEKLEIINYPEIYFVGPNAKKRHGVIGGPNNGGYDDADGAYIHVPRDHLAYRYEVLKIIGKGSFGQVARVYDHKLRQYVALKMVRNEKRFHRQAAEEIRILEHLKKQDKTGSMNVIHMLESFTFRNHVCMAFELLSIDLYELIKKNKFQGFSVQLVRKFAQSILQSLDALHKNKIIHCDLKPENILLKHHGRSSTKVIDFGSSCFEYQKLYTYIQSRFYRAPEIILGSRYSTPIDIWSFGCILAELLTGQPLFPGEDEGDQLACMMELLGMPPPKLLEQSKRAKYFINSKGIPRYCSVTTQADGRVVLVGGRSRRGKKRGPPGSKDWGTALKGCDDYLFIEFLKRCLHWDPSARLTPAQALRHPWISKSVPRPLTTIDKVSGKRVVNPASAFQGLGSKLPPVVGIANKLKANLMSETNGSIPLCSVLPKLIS
UniProt P11309, sequence (whole entry, looked up): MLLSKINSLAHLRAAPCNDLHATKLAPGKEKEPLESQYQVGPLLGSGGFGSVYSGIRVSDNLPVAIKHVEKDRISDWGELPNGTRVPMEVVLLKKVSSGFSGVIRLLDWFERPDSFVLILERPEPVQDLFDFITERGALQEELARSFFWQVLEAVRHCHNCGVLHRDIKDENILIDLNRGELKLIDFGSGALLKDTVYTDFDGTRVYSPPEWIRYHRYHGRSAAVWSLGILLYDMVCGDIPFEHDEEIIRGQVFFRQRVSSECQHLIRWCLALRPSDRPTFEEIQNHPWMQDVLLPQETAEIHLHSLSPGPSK
UniProt Q8NI60, sequence (whole entry, looked up): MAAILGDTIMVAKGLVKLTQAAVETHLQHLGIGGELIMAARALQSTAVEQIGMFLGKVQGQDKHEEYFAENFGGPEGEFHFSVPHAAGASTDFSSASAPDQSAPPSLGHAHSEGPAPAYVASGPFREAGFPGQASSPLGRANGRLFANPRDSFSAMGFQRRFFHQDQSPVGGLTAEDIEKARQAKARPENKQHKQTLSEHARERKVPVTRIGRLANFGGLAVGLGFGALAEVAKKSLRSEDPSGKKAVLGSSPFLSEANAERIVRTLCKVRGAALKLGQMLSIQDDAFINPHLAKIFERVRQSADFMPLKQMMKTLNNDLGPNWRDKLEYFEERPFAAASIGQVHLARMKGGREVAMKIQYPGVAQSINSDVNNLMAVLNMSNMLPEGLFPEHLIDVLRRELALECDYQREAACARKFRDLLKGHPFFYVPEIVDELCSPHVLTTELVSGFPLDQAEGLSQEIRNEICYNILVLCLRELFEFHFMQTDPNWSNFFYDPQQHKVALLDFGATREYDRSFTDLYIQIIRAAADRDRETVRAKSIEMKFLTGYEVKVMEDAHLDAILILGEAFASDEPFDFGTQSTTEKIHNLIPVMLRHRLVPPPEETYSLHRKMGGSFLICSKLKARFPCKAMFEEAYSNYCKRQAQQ

Set 1
Compound: CCN(c1nc(N)c(C(=O)N=C(N)N)nc1Cl)C(C)C
Read-out: β-arrestin recruitment
Mode: agonist
Technique: PRESTO-Tango
Concentration: 10 µM
Reference: untreated
| target | fold over basal |
| --- | --- |
| Motilin receptor (MLNR, Homo sapiens, UniProt O43193) | 0.68 |
| GPR18 (Homo sapiens, UniProt Q14330) | 0.76 |
| HTR2C (Homo sapiens, UniProt P28335, I156V/I160V) | 0.46 |
| G-protein coupled receptor 87 (GPR87, Homo sapiens, UniProt Q9BY21) | 0.89 |
| Proto-oncogene Mas (Homo sapiens, UniProt P04201) | 1.73 |
| OXER1 (Homo sapiens, UniProt Q8TDS5) | 0.72 |
| Adhesion G protein-coupled receptor L4 (ADGRL4, Homo sapiens, UniProt Q9HBW9) | 1 |
| CRHR1 (Homo sapiens, UniProt P34998) | 0.93 |
| SSTR3 (Homo sapiens, UniProt P32745) | 0.76 fold |
| GPR68 (Homo sapiens, UniProt Q15743) | 0.71 |
| GHRHR (Homo sapiens, UniProt Q02643) | 0.62 fold |
| HTR2B (Homo sapiens, UniProt P41595) | 0.89 |

Set 2
Compound: C[C@@H](c1cccc(C#N)c1)n1cc(Cl)cc(C(N)=O)c1=N
Technique: competition with immobilised ligand
Concentration: 1 µM
| target | read-out | remaining binding [%] |
| --- | --- | --- |
| CILK1 (Homo sapiens, UniProt Q9UPZ9) | binding | 81 |
| Aurora kinase A (AURKA, Homo sapiens, UniProt O14965) | cell-free assay | 96 |
| SYK (Homo sapiens, UniProt P43405) | cell-free assay | 96 |
| BTK (Homo sapiens, UniProt Q06187) | cell-free assay | 98 |
| KIT (Homo sapiens, UniProt P10721, A829P) | cell-free assay | 100 |
| BMPR1B (Homo sapiens, UniProt O00238) | cell-free assay | 89 |
| MAPK15 (Homo sapiens, UniProt Q8TD08) | cell-free assay | 100 |
| PRKD3 (Homo sapiens, UniProt O94806) | cell-free assay | 100 |
| IKBKE (Homo sapiens, UniProt Q14164) | cell-free assay | 56 |
| MAPK1 (Homo sapiens, UniProt P28482) | cell-free assay | 82 |
| CDK2 (Homo sapiens, UniProt P24941) | cell-free assay | 100 |
| ALK (Homo sapiens, UniProt Q9UM73, C1156Y) | cell-free assay | 98 |
| STK35 (Homo sapiens, UniProt Q8TDR2) | cell-free assay | 100 |
| COQ8A (Homo sapiens, UniProt Q8NI60) | cell-free assay | 89 |
| ALK (Homo sapiens, UniProt Q9UM73) | cell-free assay | 83 |
| EIF2AK2 (Homo sapiens, UniProt P19525) | cell-free assay | 100 |

Set 3
Structure (SMILES): COc1ccc2[nH]c3c4[nH]c5ccc(OC)cc5c4c4c(c3c2c1)C(=O)NC4=O
Read-out: binding
Concentration: 1 µM
| target | technique | remaining binding |
| --- | --- | --- |
| Ribosomal protein S6 kinase alpha-1, C-terminal kinase domain (RPS6KA1, Homo sapiens, UniProt Q15418) | competition with immobilised ligand | 100% |
| CLK1 (Homo sapiens, UniProt P49759) | competition with immobilised ligand | 80% |
| SBK1 (Homo sapiens, UniProt Q52WX2) | competition with immobilised ligand | 95% |
| PIM1 (Homo sapiens, UniProt P11309) | – | 46% |
| MAPK6 (Homo sapiens, UniProt Q16659) | – | 84% |
| TGFBR1 (Homo sapiens, UniProt P36897) | competition with immobilised ligand | 100% |
| PRKD1 (Homo sapiens, UniProt Q15139) | – | 68% |
| DCLK1 (Homo sapiens, UniProt O15075) | competition with immobilised ligand | 90% |
| MAP3K12 (Homo sapiens, UniProt Q12852) | – | 77% |
| PAK3 (Homo sapiens, UniProt O75914) | – | 4.2% |
| PRKCH (Homo sapiens, UniProt P24723) | – | 35% |
| PRKCQ (Homo sapiens, UniProt Q04759) | – | 44% |
| YES1 (Homo sapiens, UniProt P07947) | competition with immobilised ligand | 73% |

Set 4
SMILES: Fc1ccc(-c2nc3n(c2-c2ccncc2)CCS3)cc1
Read-out: enzyme activity
Mode: inhibitor
Concentration: 0.5 µM
Reference: control
| target | remaining activity [%] |
| --- | --- |
| AXL (Homo sapiens, UniProt P30530) | 95.8 |
| RPS6KA6 (Homo sapiens, UniProt Q9UK32) | 115 |
| TSSK2 (Homo sapiens, UniProt Q96PF2) | 93.2 |
| MAPKAPK3 (Homo sapiens, UniProt Q16644) | 95.5 |
| HIPK4 (Homo sapiens, UniProt Q8NE63) | 89.7 |
| Cyclin-dependent kinase 6, with cyclin D3 (CDK6, Homo sapiens, UniProt Q00534) | 108 |
| PHKG1 (Homo sapiens, UniProt Q16816) | 94.6 |
| STK17A (Homo sapiens, UniProt Q9UEE5) | 99.4 |
| PDPK1 (Homo sapiens, UniProt O15530) | 109 |
| DYRK3 (Homo sapiens, UniProt O43781) | 103 |
| SRMS (Homo sapiens, UniProt Q9H3Y6) | 102 |
| WNK3 (Homo sapiens, UniProt Q9BYP7) | 105 |
| CAMK2B (Homo sapiens, UniProt Q13554) | 90 |
| EPHB4 (Homo sapiens, UniProt P54760) | 88 |
| PRKACG (Homo sapiens, UniProt P22612) | 116 |
| HIPK2 (Homo sapiens, UniProt Q9H2X6) | 99.2 |
| EPHA4 (Homo sapiens, UniProt P54764) | 106 |
| Cyclin-dependent kinase 1, with cyclin B (CDK1, Homo sapiens, UniProt P06493) | 91.4 |
| MAP4K4 (Homo sapiens, UniProt O95819) | 72.3 |
| Cyclin-dependent kinase 4, with cyclin D3 (CDK4, Homo sapiens, UniProt P11802) | 94.9 |
| EPHB1 (Homo sapiens, UniProt P54762) | 106 |
| STK16 (Homo sapiens, UniProt O75716) | 106 |
